Experimental data pooled from the literature.
Compare with care: the assays were run in different laboratories. ± gives the spread as reported.

SMILES | assay | test system | setting | how to read | measurement | result
F[P-](F)(F)(F)(F)F.F[P-](F)(F)(F)(F)F.[Ru+2].c1ccc(-c2ccccn2)nc1.c1ccc(-c2ccccn2)nc1.c1csc(-c2cc3cccnc3c3ncccc23)c1 | – | acetonitrile, air-saturated | room temperature | – | singlet oxygen quantum yield | 58%
CC[C@@H]1C[C@]1(NC(=O)[C@@H]1C[C@@]2(CN1C(=O)[C@@H](NC(=O)[C@@H](NC(=O)[C@@H]1CCCCN1C(C)C)C1CCCCC1)C(C)(C)C)C(C)(C)C21CCC1)C(=O)NS(=O)(=O)N1CCCC1 | refers to: nausea | human fasted | oral, 100 mg single dose | – | subjects with adverse event | 0%
C[C@@H](O)[C@H](NC(=O)[C@H](CCCCN)NC(=O)COCCN)C(=O)N[C@@H](CCCNC(=N)N)C(=O)NC(C)(C)C(=O)N[C@@H](CCCNC(=N)N)C(=O)NC(C)(C)C(=O)N[C@H](C(=O)N[C@@H](CO)C(=O)N[C@@H](Cc1c[nH]cn1)C(=O)N[C@@H](Cc1ccc(O)cc1)C(=O)NCC(=O)O)[C@@H](C)O | – | C57BL/6 mouse, blood | intravenous, 50 mg/kg, 10 h | – | granulocytes | 7 to 13%
COc1ccc(C)cc1NC(=O)OC1CC2CCCC(C1)N2Cc1ccc(CC[18F])cc1 (stereo not shown) | – | BALB/c mice, EMT6 tumour, kidney | 1 h | – | tissue uptake | 10.4 ± 1.29 %ID/g
COC(=O)C[C@H](NC(=O)[C@H](C)NC(=O)[C@@H](NC(=O)[C@H](CC(=O)OC)NC(=O)[C@@H](NC(=O)c1ccc2ccccc2n1)C(C)C)C(C)C)C(=O)COc1c(F)cccc1F | echography | rat pups | 1 mg/kg, 1 h | – | left ventricular end-diastolic diameter | 0.31 ± 0.015 mm
CC[C@H](C)[C@H](NC(=O)[C@H](CCCCN)NC(=O)CNC(=O)[C@H](CC(C)C)NC(=O)[C@@H](NC(=O)[C@H](C)NC(=O)[C@H](CCCCN)NC(=O)CNC(=O)[C@H](C)NC(=O)CNC(=O)[C@H](CCCCN)NC(=O)[C@H](CCSC)NC(=O)[C@H](CCCCN)NC(=O)[C@@H](NC(=O)[C@H](Cc1c[nH]c2ccccc12)NC(=O)[C@H](CC(C)C)NC(=O)[C@H](CCC(=O)O)NC(=O)[C@H](CCCCN)NC(=O)[C@H](CC(C)C)NC(=O)[C@@H](N)CC(C)C)[C@@H](C)O)C(C)C)C(=O)N[C@@H](CCCCN)C(=O)NCC(=O)N[C@@H](CC(C)C)C(=O)N[C@@H](CC(C)C)C(=O)O | acrylamide quenching | DOPC vesicles, 250 µM lipid | 2 µM, added: acrylamide | – | Stern-Volmer constant | 2.49 ± 0.32 M⁻¹
CCCCCCCCC=CCCCCCCCC(=O)OCC1OC(n2ccc(N)nc2=O)C(F)(F)C1O (stereo not shown) | – | female nude mouse, colon xenograft, patient-derived colon tumour | oral, 150 mg/kg, dosed days 1 and 8 | – | body weight loss | 10%
CC(C)[C@H](NC(=O)CNC(=O)[C@H](CCC(N)=O)NC(=O)[C@H](C)N)C(=O)O | – | human | intravenous infusion, 15 mg/kg/h, 2 h infusion | – | subjects with moderate adverse events | 0%
COc1cc(NC(=O)C(=O)c2c(C)n(Cc3ccc(Cl)cc3)c3ccc(C)cc23)ccn1 | – | cynomolgus monkey, male, plasma | oral, 10 mg/kg | – | AUC(0-last) | 2580 ng·h/mL
CN(C)C(CNC(=O)Nc1cc(C(F)(F)F)ccc1N1CCOCC1)c1ccncc1 (stereo not shown) | – | mouse, serum | intraperitoneal, 120 mg/kg single dose | – | serum ALT | 106 U/L
CN1CCC[C@@H]1C(=O)N[C@@H](Cc1ccc(-c2ccccc2)cc1)B(O)O | – | Pf3D7 0087/N9, NODscidIL2Rγnull mice infected with P. falciparum | oral, dose not given | – | tolerability | not toxic
CC(=CCC(O)C(C)=Cc1csc(C)n1)CC=CC(C)C(O)C(C)C(=O)C(C)(C)C(O)CC(=O)O (stereo not shown) | – | human, plasma | intravenous infusion, 8.5 mg/m2 KOS-1584, 3 h infusion, cycle 1 | – | half-life | 19.2 ± 2.69 h
CC(C)C[C@@H](N)C(=O)NCC(=O)N[C@H](C)C(=O)N[C@H](CO)C(=O)N[C@H](Cc1c[nH]c2ccccc12)C(=O)N[C@H](Cc1c[nH]cn1)C(=O)N[C@H](CCCNC(=N)N)C(=O)N1CCC[C@@H]1C(=O)N[C@H](CC(=O)O)C(=O)N[C@H](CCCCN)C(=O)N[C@H](CS)C(=O)N[C@H](CS)C(=O)N[C@H](CC(C)C)C(=O)NCC(=O)N[C@H](Cc1ccc(O)cc1)C(=O)N[C@H](CCC(N)=O)C(=O)N[C@H](CCCCN)C(=O)N[C@H](CCCNC(=N)N)C(=O)N1CCC[C@@H]1C(=O)N[C@H](CC(C)C)C(=O)N1CCC[C@@H]1C(N)=O | – | male Sprague-Dawley rat, plasma | subcutaneous, 10 mg/kg, single dose | – | AUC(0-inf) | 35600 ng·h/mL
CN[C@](C)(C[18F])C(=O)O | – | SCID mouse MDA-MB-468 xenograft, heart | 60 min post injection | – | tissue uptake | 2.7 ± 0.8 %ID/g
CC(C)C[C@H](NC(=O)[C@H](CCCCN)NC(=O)[C@H](C)NC(=O)[C@@H]1CCCN1C(=O)[C@@H]1CCCN1C(=O)[C@H](CCCCN)NC(=O)[C@H](CCCCN)NC(=O)[C@H](CO)NC(=O)[C@H](CCC(=O)O)NC(=O)[C@H](CCCCN)NC(=O)[C@H](CCCNC(=N)N)NC(=O)[C@H](CCC(N)=O)NC(=O)[C@H](CCC(N)=O)NC(=O)[C@@H](NC(=O)[C@H](CCCNC(=N)N)NC(=O)[C@H](CCC(N)=O)NC(=O)[C@H](Cc1cnc[nH]1)NC(=O)[C@H](CCC(=O)O)NC(=O)[C@@H]1CCCN1C(=O)[C@H](CO)NC(=O)[C@H](CC(C)C)NC(=O)[C@H](Cc1ccccc1)NC(=O)[C@H](CO)NC(=O)[C@H](CO)NC(=O)CN)C(C)C)C(=O)N[C@@H](CCC(N)=O)C(=O)N1CCC[C@H]1C(=O)N[C@@H](CCCNC(=N)N)C(=O)O | ELISA | healthy humans, both sexes, plasma | intravenous infusion, 4 µg/kg/h, 210 min | – | AUC(0-last) | 44.9 ± 15.9 ng·h/mL
CC(=O)N[C@H](CCCNC(=N)N)C(=O)N[C@H](CCCCN)C(=O)N[C@H](Cc1ccc(O)cc1)C(=O)N[C@H](CS)C(N)=O | – | rat liver mitochondria | 500 nM, 5 min, pH 7.4, 37 °C | relative to: MitoQ | mitochondrial uptake | ~80%
COc1ccc(F)cc1S(=O)(=O)Nc1cnc2c(c1)C(=O)NCCO2 | – | C57BL/6J mice, plasma | oral, 0.1 mg/kg | – | AUC(0-t) | 29.4 ± 7.2 ng‧h/mL
CSCC[C@H](NC(=O)CNC(=O)[C@H](CC(=O)O)NC(=O)[C@@H](NC(=O)[C@@H](NC(=O)[C@@H](NC(=O)CNC(=O)[C@H](CCC(N)=O)NC(=O)[C@H](CCSC)NC(=O)[C@H](CC(=O)O)NC(=O)[C@H](C)NC(=O)[C@H](C)NC(=O)[C@@H](NC(=O)[C@H](CO)NC(=O)[C@@H](N)CC(C)C)[C@@H](C)O)C(C)C)C(C)C)[C@@H](C)O)C(=O)N[C@@H](C)C(=O)N[C@@H](CO)C(=O)NCC(=O)N[C@@H](CC(C)C)C(=O)N[C@@H](CC(=O)O)C(=O)N[C@@H](CCCCN)C(=O)N[C@@H](CC(=O)O)C(=O)N[C@@H](Cc1ccc(O)cc1)C(=O)N[C@@H](CC(C)C)C(=O)N[C@@H](CCCCN)C(=O)N1CCC[C@H]1C(=O)N[C@@H](CC(=O)O)C(=O)N[C@@H](CC(=O)O)C(=O)O | – | human, serum | intravenous, 4.16 mg/kg, patients, infusion | – | AUC(0-t) | 3700 ng·h/mL
CC[C@H](C)[C@H](NC(=O)[C@H](CCC(=O)O)NC(=O)[C@H](CCC(=O)O)NC(=O)[C@H](Cc1ccccc1)NC(=O)[C@H](CC(=O)O)NC(=O)CNC(=O)[C@H](CC(N)=O)NC(=O)CNC(=O)CNC(=O)CNC(=O)CNC(=O)[C@@H]1CCCN1C(=O)[C@H](CCCNC(=N)N)NC(=O)[C@@H]1CCCN1C(=O)[C@H](N)Cc1ccccc1)C(=O)N1CCC[C@H]1C(=O)N[C@@H](CCC(=O)O)C(=O)N[C@@H](CCC(=O)O)C(=O)N[C@@H](Cc1ccc(O)cc1)C(=O)N[C@@H](CC(C)C)C(=O)O | LC-MS/MS | processed plasma samples | 7 h, autosampler stability, nominal 240.0 ng/mL | – | concentration | 241 ± 11.7 ng/mL
CC[C@H](C)[C@H](NC(=O)[C@H](CCCCN)NC(=O)[C@H](CCCCN)NC(=O)[C@H](Cc1ccccc1)NC(=O)[C@H](CC(C)C)NC(=O)[C@@H](CCCCN)NC(=O)[C@H](Cc1c[nH]c2ccccc12)NC(=O)[C@H](CCCCN)NC(C)=O)C(=O)NCC(=O)N[C@@H](C)C(=O)N[C@H](C(=O)N[C@@H](CC(C)C)C(=O)N[C@H](CCCCN)C(=O)N[C@H](C(=O)N[C@@H](CC(C)C)C(N)=O)C(C)C)C(C)C | circular dichroism | PE:PG:CL liposomes | 60 µM, lipid to peptide ratio 1 | relative to: reference peptide | helical content | ~69%
CC[C@H](C)C(=O)N1CCC(NC(=O)Nc2ccc(OC(F)(F)F)c(F)c2)CC1 | – | human, plasma | oral, 24 mg, single dose, healthy volunteers | – | AUC(0-inf) | 9310 ng·h/mL
CC(C)[C@H](NC(=O)CNC(=O)[C@H](CCC(N)=O)NC(=O)[C@H](C)N)C(=O)O | – | healthy male volunteers | intravenous, 15 mg/kg/h, 2 h, added: LPS 2 ng/kg | – | subjects with Possibly related AE | 0%
COc1cc(C(=O)NCCOCCOCCOCCNC(=O)c2ccc([18F])nc2)ccc1NC(=O)C1NC(CC(C)(C)C)C(C#N)(c2ccc(Cl)cc2F)C1c1cccc(Cl)c1F (stereo not shown) | – | athymic male mice, HepG2 xenograft | 2 h | relative to: tumour over blood | tumour-to-tissue ratio | 2.66 ± 1
N=C(N)NCc1ccc(C(=O)NCCCC[C@H](NC(=O)N[C@@H](CCC(=O)O)C(=O)O)C(=O)O)cc1[131I] | – | SCID mouse, PC-3 xenografts, lungs | 4 h | – | tissue uptake | 0.62 ± 0.32 %ID/g
CCCCCCCCCCCCCC(=O)N[C@H](CCN)C(=O)N[C@@H]1C(=O)N[C@@H](CCN)C(=O)N[C@@H](CC(C)C)C(=O)N[C@@H](CCN)C(=O)N[C@H](Cc2ccccc2)C(=O)N[C@@H](CC(C)C)C(=O)N[C@@H](CCN)C(=O)N[C@H](CCN)C(=O)N[C@@H](C(C)C)C(=O)N[C@@H](CC(=O)O)C(=O)O[C@@H]1C | – | rat, plasma | subcutaneous, 10 mg/kg | – | bioavailability | 102%
CC(CCC(=O)NCC(=O)O)C1CCC2C3CCC4CC(OC5OC(C(=O)O)C(O)C(O)C5O)CCC4(C)C3CC(O)C12C (stereo not shown) | – | human, SLCO1B1 *5/*35, plasma | geometric mean, sex-adjusted | – | plasma concentration | 57.3 ng/mL
CC(=O)[O-].CN1CCCN2CCN(CCCN(Cc3ccccc3)CC2)CC1.F[P-](F)(F)(F)(F)F.[Co+2] | cyclic voltammetry | acetonitrile | – | relative to: SHE | irreversible oxidation potential | 1.16 V
CCCCCCCCC1(CCCCCCCC)c2cc(-c3cc4[n+]5c(c3)-c3cccc[n+]3[Ir-3]536([c]5c(c(C)cc(C)c5-c5cccc[n+]53)-c3cccc[n+]36)[n+]3ccccc3-4)ccc2-c2ccc(-c3cc4[n+]5c(c3)-c3cccc[n+]3[Ir-3]536([c]5c(c(C)cc(C)c5-c5cccc[n+]53)-c3cccc[n+]36)[n+]3ccccc3-4)cc21.F[P-](F)(F)(F)(F)F.F[P-](F)(F)(F)(F)F.F[P-](F)(F)(F)(F)F.F[P-](F)(F)(F)(F)F | – | acetonitrile | – | – | singlet oxygen quantum yield | 4%

For quick reference, copied from above:
SMILES | assay | test system | setting | how to read | measurement | result
CSCC[C@H](NC(=O)CNC(=O)[C@H](CC(=O)O)NC(=O)[C@@H](NC(=O)[C@@H](NC(=O)[C@@H](NC(=O)CNC(=O)[C@H](CCC(N)=O)NC(=O)[C@H](CCSC)NC(=O)[C@H](CC(=O)O)NC(=O)[C@H](C)NC(=O)[C@H](C)NC(=O)[C@@H](NC(=O)[C@H](CO)NC(=O)[C@@H](N)CC(C)C)[C@@H](C)O)C(C)C)C(C)C)[C@@H](C)O)C(=O)N[C@@H](C)C(=O)N[C@@H](CO)C(=O)NCC(=O)N[C@@H](CC(C)C)C(=O)N[C@@H](CC(=O)O)C(=O)N[C@@H](CCCCN)C(=O)N[C@@H](CC(=O)O)C(=O)N[C@@H](Cc1ccc(O)cc1)C(=O)N[C@@H](CC(C)C)C(=O)N[C@@H](CCCCN)C(=O)N1CCC[C@H]1C(=O)N[C@@H](CC(=O)O)C(=O)N[C@@H](CC(=O)O)C(=O)O | – | human, serum | intravenous, 4.16 mg/kg, patients, infusion | – | AUC(0-t) | 3700 ng·h/mL
CC[C@H](C)[C@H](NC(=O)[C@H](CCCCN)NC(=O)[C@H](CCCCN)NC(=O)[C@H](Cc1ccccc1)NC(=O)[C@H](CC(C)C)NC(=O)[C@@H](CCCCN)NC(=O)[C@H](Cc1c[nH]c2ccccc12)NC(=O)[C@H](CCCCN)NC(C)=O)C(=O)NCC(=O)N[C@@H](C)C(=O)N[C@H](C(=O)N[C@@H](CC(C)C)C(=O)N[C@H](CCCCN)C(=O)N[C@H](C(=O)N[C@@H](CC(C)C)C(N)=O)C(C)C)C(C)C | circular dichroism | PE:PG:CL liposomes | 60 µM, lipid to peptide ratio 1 | relative to: reference peptide | helical content | ~69%
